# Results gathered from unrelated publications.
# A part holds a random share of what one study measured. Changes are numbered by the printed parent chain.

# Sample 1
# Target: Interferon regulatory factor 5, full length, phosphomimetic (IRF5, Homo sapiens, UniProt Q13568-2, residues 1-514, S451D/S453D/S456D/S462D)
# Method: protein-binding microarray
# Molecule type: double-stranded DNA, one strand shown
# Sample: in vitro
# Tested at: 940 nM top
# Setting: 60-bp whole probe
# Together with: salmon DNA 0.4 mg/ml
# Baseline: random background probes
# Reading: higher = stronger binding
# All sequences stand within: GCCTAGCAC … GTCTTGATTCGCTTGACGCTGCTG
Sequence,fitted relative affinity [z-score]
TGGCTTTGCCTTTTGCTTTAGTGCTAG,-0.207
TTAGAATTCAGACTGGATTAGTGCTAG,-0.874
GACGATATCGGGACTGGAGTCGTGCTA,0.0664
GACGGTCTCGGTCTCGGTACGTGCTAG,4.88
TCAAGAGTAGTTTTTCAAACTGTGCTA,-0.401

# Sample 2
# Target: Histone acetyltransferase KAT6A, both winged helices, GST fusion (KAT6A, Homo sapiens, UniProt Q92794, residues 1-181)
# Method: protein binding microarray
# Molecule type: double-stranded DNA, one strand shown
# Sample: in vitro
# Tested at: not given
# Setting: 8-mer, flanks averaged, mean of 2 arrays, mostly near background
# Baseline: not given
# Reading: higher = stronger binding
# Target sequence (chain): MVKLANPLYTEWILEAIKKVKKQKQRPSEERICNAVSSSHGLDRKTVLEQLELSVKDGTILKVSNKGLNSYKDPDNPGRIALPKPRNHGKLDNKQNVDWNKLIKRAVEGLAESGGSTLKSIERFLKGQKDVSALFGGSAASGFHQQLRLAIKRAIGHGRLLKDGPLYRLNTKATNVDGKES
Sequence,E-score
AACCCGCT,0.237
AATAGACT,-0.263
ATCTGTTC,-0.125
AAATAGAG,-0.141
AGCAGCGG,0.0627
CTGGAGAC,-0.1
CTTGCTGA,-0.188

# Sample 3
# Target: CCNB3, cyclin fold, Cln2 fusion (human)
# Method: yeast growth competition, sequencing
# Sample: yeast
# Setting: weak parent motif
# Baseline: not given
# Reading: higher = stronger binding
# Starting sequence: CDC6 docking peptide (human); TLKGRRLVFDNQL; partner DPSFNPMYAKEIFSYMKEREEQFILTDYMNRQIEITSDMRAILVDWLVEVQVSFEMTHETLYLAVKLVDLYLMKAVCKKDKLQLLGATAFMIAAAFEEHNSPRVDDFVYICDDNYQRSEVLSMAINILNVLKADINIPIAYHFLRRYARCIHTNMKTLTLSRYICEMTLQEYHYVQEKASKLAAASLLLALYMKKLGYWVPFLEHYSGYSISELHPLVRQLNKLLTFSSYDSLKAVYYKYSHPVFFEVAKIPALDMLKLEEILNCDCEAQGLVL
Substitution,normalised enrichment score
F9Q,0.00315
L13R,0.36
T1C,0.244
R5C,0.108
L7Q,0.303
L2V,0.509
L7W,0.539

# Other studies, line by line
Molecule,target,assay,system,conditions,scale,endpoint,result
"PhoQ, residues 284 288 289 292 302 303 SNSSNI","PhoP, residues 12 14 15 18 19 DLLYY (Escherichia coli, UniProt P23836)","Sort-seq, item: YFP reporter",E. coli,"PhoQ-PhoP variant library, together with: 10 µM Mg2+","baseline: high Mg2+ state, higher = stronger signaling",fold induction,1.22

# Excerpt of the above (sample 3):
Substitution,normalised enrichment score
L2V,0.509
L7W,0.539
R5C,0.108
